Published values pooled from the literature.
Each numbered part is a random draw from the data of one study; scales do not carry over between parts. Positions count from the first letter of the parent shown.
Sequence of UniProt P54753 (whole entry, looked up): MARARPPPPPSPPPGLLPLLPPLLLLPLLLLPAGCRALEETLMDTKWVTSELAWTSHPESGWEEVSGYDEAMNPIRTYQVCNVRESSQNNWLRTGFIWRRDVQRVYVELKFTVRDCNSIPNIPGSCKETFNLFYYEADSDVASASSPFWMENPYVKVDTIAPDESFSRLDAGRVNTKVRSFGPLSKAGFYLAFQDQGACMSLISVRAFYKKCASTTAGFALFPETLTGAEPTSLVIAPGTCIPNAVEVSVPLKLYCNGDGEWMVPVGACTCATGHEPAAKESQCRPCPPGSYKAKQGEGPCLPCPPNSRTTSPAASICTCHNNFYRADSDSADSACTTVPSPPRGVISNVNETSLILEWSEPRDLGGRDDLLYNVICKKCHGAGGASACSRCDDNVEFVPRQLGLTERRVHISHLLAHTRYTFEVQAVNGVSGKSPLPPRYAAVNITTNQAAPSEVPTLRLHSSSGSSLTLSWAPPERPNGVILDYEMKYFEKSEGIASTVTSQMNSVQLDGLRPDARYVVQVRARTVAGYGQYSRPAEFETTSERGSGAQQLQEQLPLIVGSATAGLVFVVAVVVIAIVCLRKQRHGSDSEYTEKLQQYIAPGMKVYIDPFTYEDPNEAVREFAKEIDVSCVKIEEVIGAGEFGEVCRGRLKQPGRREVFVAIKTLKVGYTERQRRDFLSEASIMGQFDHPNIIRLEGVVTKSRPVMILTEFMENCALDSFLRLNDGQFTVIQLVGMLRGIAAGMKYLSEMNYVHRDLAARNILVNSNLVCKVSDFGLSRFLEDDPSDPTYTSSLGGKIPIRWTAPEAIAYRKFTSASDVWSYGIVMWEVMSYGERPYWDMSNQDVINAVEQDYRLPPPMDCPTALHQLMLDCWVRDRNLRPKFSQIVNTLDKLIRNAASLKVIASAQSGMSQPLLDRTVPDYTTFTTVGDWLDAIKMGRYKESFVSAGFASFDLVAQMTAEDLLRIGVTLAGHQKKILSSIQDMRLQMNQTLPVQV

Sample 1
Target: HLA class I histocompatibility antigen, C alpha chain, allele C*04:01 (Homo sapiens, UniProt P10321)
Read-out: peptide-MHC binding
Molecule type: peptide
Concentration: concentration not given
Molecule	binding
RYDKSAADL	inactive
MSDWGHITV	inactive
RRRFVQNAL	inactive
RMMGVKYLM	inactive
HADDIPVPV	inactive
FAYKTGSSM	inactive
SYMSTFPLF	active
SSDDFALIV	inactive

Sample 2
Target: CCNA1, cyclin fold, Cln2 fusion (human)
Method: yeast growth competition, sequencing
Sample: yeast
Setting: strong parent motif
Relative to: not given
Direction: higher = stronger binding
Starting sequence: viral docking peptide; YKVKRRLVFGADD; partner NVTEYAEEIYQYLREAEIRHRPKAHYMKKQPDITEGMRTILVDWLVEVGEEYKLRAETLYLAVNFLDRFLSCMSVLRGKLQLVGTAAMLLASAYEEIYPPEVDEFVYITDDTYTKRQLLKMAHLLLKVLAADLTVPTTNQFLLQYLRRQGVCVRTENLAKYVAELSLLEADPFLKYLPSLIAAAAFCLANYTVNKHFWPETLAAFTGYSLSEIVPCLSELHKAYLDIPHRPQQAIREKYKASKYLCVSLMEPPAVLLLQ
Substitution	normalised enrichment score
G10K	1.19
V8W	0.395
R5V	0.854
L7D	0.246
A11W	0.857

Sample 3
Target: 5-hydroxytryptamine receptor 2A (HTR2A, Homo sapiens, UniProt P28223)
Sequence of UniProt P28223 (whole entry, looked up): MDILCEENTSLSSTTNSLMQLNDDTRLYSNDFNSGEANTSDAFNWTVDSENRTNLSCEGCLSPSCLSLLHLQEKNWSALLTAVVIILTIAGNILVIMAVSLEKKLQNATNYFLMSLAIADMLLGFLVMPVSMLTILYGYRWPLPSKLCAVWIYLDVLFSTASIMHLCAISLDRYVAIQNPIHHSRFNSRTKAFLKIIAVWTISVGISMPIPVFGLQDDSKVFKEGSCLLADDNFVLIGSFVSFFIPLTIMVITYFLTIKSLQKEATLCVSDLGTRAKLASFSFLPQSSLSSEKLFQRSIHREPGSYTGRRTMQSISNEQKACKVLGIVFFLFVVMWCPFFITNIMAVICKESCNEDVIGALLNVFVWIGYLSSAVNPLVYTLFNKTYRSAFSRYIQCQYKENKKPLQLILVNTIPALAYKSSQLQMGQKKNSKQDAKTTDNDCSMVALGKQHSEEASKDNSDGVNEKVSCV
Read-out: ligand displacement
Concentration: 10 µM
SMILES	inhibition
N#CN1CC[C@@H](C(=O)Nc2nc3c(s2)CN(C(=O)CN=[N+]=[N-])CC3)C1	3.66%
CN(C)CC#Cc1ccc(OCCCc2sc(N3CCc4cccc(C(=O)Nc5nc6ccccc6s5)c4C3)nc2C(=O)O)c(F)c1	40.1%
CC(=O)N1CCC(c2ccc(C(=O)NC(=N)N)cc2C(F)(F)F)CC1	-22.7%
O=C(NCc1ncc(C(F)(F)F)cc1Cl)c1ccc2c(c1)C1(CCS(=O)(=O)CC1)[C@@H](C1CC1)N2S(=O)(=O)c1ccc(F)cc1	5.01%
COc1ccc2cc(OCC3(C(=O)O)CN(C(=O)c4ccc(F)cc4)C3)ccc2c1	6.25%
O=C(Nc1cccnn1)N1CC(CC=Cc2cncc(Oc3ccc(C(F)(F)F)cn3)n2)C1	-3.55%
CN([C@@H]1CCc2c(CC(=O)O)c3ccccc3n2C1)S(=O)(=O)c1ccc(F)cc1	-6.57%
Cc1ccccc1Oc1cc(-n2c(=O)cc(C(F)(F)F)[nH]c2=O)c2ccccc2c1Cl	-2.88%
O=C(Nc1cnc(Oc2ccc(F)cc2)nc1)N1CCc2ncccc2[C@@H]1c1ccc(F)cc1	8.72%
O=C(Nc1ccc(Oc2ccc(F)cc2)cc1)N1CCc2ncccc2[C@H]1c1ccc(F)cc1	54.5%
CO[C@@H](C)c1c(Nc2ccc([C@@H](N(C)C(=O)C3CCS(=O)(=O)CC3)C(F)(F)F)cc2)cnc2cc(Cl)nn12	4.93%
CN([C@@H]1CCc2c(CC(=O)O)c3cc(S(C)(=O)=O)ccc3n2C1)S(=O)(=O)c1ccc(F)cc1	7.27%
CC(=O)c1c(NS(C)(=O)=O)c2cc(-c3ccc(Cl)cc3)c(-c3ccc(Cl)cc3Cl)nc2n(C)c1=O	78.8%
O=C(N[C@H]1CCCCC/C=C\C2C[C@@]2(C(=O)O)NC(=O)[C@@H]2C[C@@H](Oc3ccncc3)CN2C1=O)OC1CCCC1 (stereo partly shown)	-7.7%

Further values, each from its own experiment
Structure (SMILES)	target	assay	setting	scale	endpoint	value
O=C1NC(=O)c2c1c1c3ccccc3n3c1c1c2c2ccccc2n1[C@H]1CC[C@@H]3O1	Ephrin type-B receptor 3 (EPHB3, Homo sapiens, UniProt P54753)	enzyme activity, inhibitor	0.5 µM	relative to: control	remaining activity	93.2%

Some of these lines once more (sample 1):
Molecule	binding
SYMSTFPLF	active
RYDKSAADL	inactive
MSDWGHITV	inactive
FAYKTGSSM	inactive
